Assay results pooled from the literature.
Compare with care: the assays were run in different laboratories. “And” joins repeats or separate records; there may be more than shown. ± marks the error that the study gave.
HLA class I histocompatibility antigen, A alpha chain allele A*24:02: HLA class I histocompatibility antigen, A alpha chain, allele A*24:02 (Homo sapiens, UniProt P04439)
Chain of UniProt Q64663 (whole entry, unmodified, looked up): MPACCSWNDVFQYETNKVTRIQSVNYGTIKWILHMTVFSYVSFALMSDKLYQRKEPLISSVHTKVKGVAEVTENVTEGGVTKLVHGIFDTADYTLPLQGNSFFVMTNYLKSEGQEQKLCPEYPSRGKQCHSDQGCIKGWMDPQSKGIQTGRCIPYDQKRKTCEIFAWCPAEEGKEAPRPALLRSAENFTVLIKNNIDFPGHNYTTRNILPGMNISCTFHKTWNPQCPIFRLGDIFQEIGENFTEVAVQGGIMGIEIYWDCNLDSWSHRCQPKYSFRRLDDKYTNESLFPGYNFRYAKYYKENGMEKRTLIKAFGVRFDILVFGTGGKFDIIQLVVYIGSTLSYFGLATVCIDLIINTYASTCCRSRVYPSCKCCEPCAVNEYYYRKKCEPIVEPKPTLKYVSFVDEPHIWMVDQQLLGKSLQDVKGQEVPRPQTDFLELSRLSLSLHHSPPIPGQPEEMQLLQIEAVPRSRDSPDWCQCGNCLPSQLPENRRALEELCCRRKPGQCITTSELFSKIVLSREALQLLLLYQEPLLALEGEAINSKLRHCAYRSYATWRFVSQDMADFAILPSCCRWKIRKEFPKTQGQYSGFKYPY

For `Polymyxin B`, the membrane depolarisation was 437 a.u. and 493 a.u. and 523 a.u. (Staphylococcus aureus; DiSC3(5) fluorescence; concentration not given, 84 min; higher = more depolarisation).
The protein binding of `Teicoplanin` is reported as 83.2% (ultrafiltration, UPLC-MS/MS; pooled human serum, spiked; 25 mg/L, 37 °C).
With `TLIMWIERV` the reporter activation was 0.00248% (Jurkat T cells expressing 1G4 TCR; NFAT-eGFP reporter, fluorescence microscopy; peptide; concentration not given, HLA-A*02:01 NY-ESO system).
With `milbemycin oxime` the OD600 was 1.02 and 1.01 (Saccharomyces cerevisiae; cell growth; Pdr5 deleted, Cdr1 overexpressed; 2^-7.966 µg/mL, together with: fluconazole 10 µg/mL).
With `hemoglobin beta` the co-IP enrichment was 2470 (co-immunoprecipitation; human RBC membrane; DSSO crosslinker, unit not given, together with: Band 3 peptide 1-56 bait; baseline: negative control).
For `BzATP`, the normalized current was 0.06 and 0.13 and 0.08 (P2X purinoceptor 7 (P2rx7, Rattus norvegicus, UniProt Q64663); ion current, agonist, two-electrode voltage clamp; Xenopus laevis oocytes; 0.41 µM; baseline: highest concentration response).
`NPDALPETLV` has a binding intensity of 0.196 (human SCRIB PDZ3-4 tandem (MBP fusion); automated holdup; peptide, crude extract; concentration not given, corrected by standard peak, unit not given; baseline: biotin control resin, higher = stronger binding).
For `ACDDQNPWRAYLDLLFPTDTLLLDLLW`, “mean fluorescence intensity” read 1150 ± 327 a.u. (ex vivo fluorescence imaging; peptide, BALB/c mice, 4T1 tumour-bearing, kidney; intravenous, 5 nmol, 4 h post-injection; higher = more uptake).
Under “half-life of peptide-HLA complex”, `QLIMQLMPF` is recorded as 42 min (HLA class I histocompatibility antigen, A alpha chain allele A*24:02; complex stability, off-rate; peptide; 37 °C).
For `MTVCNASQRQAHAQATAVSL`, the selectivity ratio was 2.7 ± 1.3 (BEAS-2B normal bronchial epithelial; phage binding output/input; peptide; baseline: control phage).
For `GSGAGPETLV`, “normalised SPR binding response” read 42.2 normalised RU (human SCRIB PDZ3-4 tandem (MBP fusion); surface plasmon resonance; peptide; concentration not given; higher = stronger binding).
With `hemoglobin alpha` the co-IP enrichment was 0.31 (co-immunoprecipitation; human plasma; unit not given, together with: Band 3 peptide 1-56 bait; baseline: negative control).
For `GEMVGQARILAQATSDLVNAIKDA`, “rupture force FWHM lower side” read 12.6 pN (vinculin head domain Vd1; complex rupture, AFM single-molecule force spectroscopy; peptide; single traces, N-terminal pulling, 800 nm/s).
`TASPAKETSF`: “normalised SPR binding response” 0 normalised RU (human MAGI1-2/6 PDZ construct (MBP fusion); surface plasmon resonance; peptide; concentration not given; higher = stronger binding).
`QLMPFGSLL` gave a binding score of 37.2% (HLA class I histocompatibility antigen, A alpha chain allele A*24:02; conformational ELISA; peptide; concentration not given; baseline: positive control peptide, direction not given).
`ALLQWIAIL` gave a reporter activation of 0.092% (Jurkat T cells expressing 1G4 TCR; NFAT-eGFP reporter, flow cytometry; peptide; concentration not given, HLA-A*02:01 NY-ESO system).
The binding intensity of `GSGAGIESNV` is reported as -0.0713 (human MAGI1-3/6 PDZ construct (MBP fusion); automated holdup; peptide, purified PDZ protein; concentration not given, unit not given; baseline: biotin control resin, higher = stronger binding).
`GLAQWVPLV` gave a reporter activation of 0.2% (Jurkat T cells expressing 1G4 TCR; NFAT-eGFP reporter, flow cytometry; peptide; concentration not given, HLA-A*02:01 NY-ESO system).
The co-IP enrichment of `human retinal dehydrogenase 1` is reported as 0 (co-immunoprecipitation; human RBC cytosol; unit not given, together with: Band 3 peptide 1-56 bait; baseline: negative control).
Under “log2 fold change”, `CTCATACAGT` is recorded as 2.55 (Salmonella enterica Typhimurium; RNA-seq, refers to: SL1344_3728 transcript; peptide, SL1344; 5 µM, 15 min; baseline: untreated control).
For `maraviroc`, “total GSK-3α level” read “no effect” (GSK-3α; mice, NSG hu-PBL, HIV-infected, brain; ip, 120 mg/kg twice daily, 3 weeks post-infection, normalized to actin).
`epoetin alfa` has a mRNA level of 11.8 fold (UT7/EPO; RT-qPCR, refers to: FOS; concentration not given, 90 min, normalized to HPRT1; baseline: vehicle).
`cotadutide` has a metabolite level of 1.03 ± 0.05 scaled intensity (metabolomics, refers to: hepatic tyrosine; ob/ob mice on AMLN diet, NASH model, liver; dose not given).
The binding intensity of `SEKHFRETEV` is reported as 0.555 (human MAGI1-2/6 PDZ construct (MBP fusion); automated holdup; peptide, crude extract; concentration not given, corrected by standard peak, unit not given; baseline: biotin control resin, higher = stronger binding).
For `6-carboxyfluorescein`, the uptake was 51.1% (Solute carrier organic anion transporter family member 2A1 (SLCO2A1, Homo sapiens, UniProt Q92959, Y90A); compound uptake, substrate; HEK293F expressing SLCO2A1 Y90A; 50 µM; baseline: wild type).
`Peginesatide` gave a phosphorylation level of 3.3 fold (UT7/EPO; tyrosine phosphorylation, LC-MS/MS phosphoproteomics, trypsin, refers to: SHIP2 tyrosine 1135; 10 nM, 15 min, together with: 10 U/mL EPO; baseline: vehicle).
`TLAEWVPRL` has a reporter activation of 0.00208% (Jurkat T cells expressing 1G4 TCR; NFAT-eGFP reporter, fluorescence microscopy; peptide; concentration not given, HLA-A*02:01 NY-ESO system).
For `SEC11A`, the co-IP enrichment was 0.527 (co-immunoprecipitation; human plasma; unit not given, together with: Band 3 peptide 1-56 bait; baseline: negative control).
The binding intensity of `QDEKVKESYV` is reported as 0.718 (human SCRIB PDZ3-4 tandem (MBP fusion); automated holdup; peptide, crude extract; concentration not given, corrected by standard peak, unit not given; baseline: biotin control resin, higher = stronger binding).
The co-IP enrichment of `human serum albumin` is reported as 33.3 (co-immunoprecipitation; human plasma; unit not given, together with: Band 3 peptide 1-56 bait; baseline: negative control).
`colistin` gave an MIC of 2 µg/mL (Klebsiella oxytoca; broth microdilution; clinical isolate RKI-No 52/07).
The binding intensity of `NRVDSKETEC` is reported as 0.746 (human SCRIB PDZ3-4 tandem (MBP fusion); automated holdup; peptide, crude extract; concentration not given, corrected by standard peak, unit not given; baseline: biotin control resin, higher = stronger binding).
The co-IP enrichment of `USP14` is reported as 30900 (co-immunoprecipitation; human RBC cytosol; DMTMM crosslinker, unit not given, together with: Band 3 peptide 1-56 bait; baseline: negative control).
For `GLLEWISLV`, the reporter activation was 0.17% (Jurkat T cells expressing 1G4 TCR; NFAT-eGFP reporter, flow cytometry; peptide; concentration not given, HLA-A*02:01 NY-ESO system).
`ILEAAKSIAAATSALVKAASAAQRE`: “rupture force FWHM upper side” 5.02 pN (vinculin head domain Vd1; complex rupture, AFM single-molecule force spectroscopy; peptide; double traces, C-terminal pulling, 800 nm/s).
With `RLAQWISQA` the reporter activation was 8.58% (Jurkat T cells expressing 1G4 TCR; NFAT-eGFP reporter, fluorescence microscopy; peptide; concentration not given, HLA-A*02:01 NY-ESO system).
For `adenosylhomocysteinase`, the co-IP enrichment was 0 (co-immunoprecipitation; human RBC membrane; unit not given, together with: Band 3 peptide 1-56 bait; baseline: negative control).
The binding intensity of `GSGAGSETSV` is reported as 0.162 (human MAGI1-2/6 PDZ construct (MBP fusion); automated holdup; peptide, crude extract; concentration not given, corrected by standard peak, unit not given; baseline: biotin control resin, higher = stronger binding).
`CLMTWLDVV` has a reporter activation of 0.00399% (Jurkat T cells expressing 1G4 TCR; NFAT-eGFP reporter, fluorescence microscopy; peptide; concentration not given, HLA-A*02:01 NY-ESO system).
`11-deoxycorticosterone` has a Kd of 3.06 µM (CYP11B2 (human); substrate binding, stopped-flow global kinetic fitting; purified enzyme; model, 4-state CS, linear, together with: no adrenodoxin).
`human GAPDH` gave a co-IP enrichment of 2.67 (co-immunoprecipitation; human plasma; unit not given, together with: Band 3 peptide 1-56 bait; baseline: negative control).
The reporter activation of `GLLEWVSMV` is reported as 0.0108% (Jurkat T cells expressing 1G4 TCR; NFAT-eGFP reporter, fluorescence microscopy; peptide; concentration not given, HLA-A*02:01 NY-ESO system).

Repeated from above:
With `hemoglobin beta` the co-IP enrichment was 2470 (co-immunoprecipitation; human RBC membrane; DSSO crosslinker, unit not given, together with: Band 3 peptide 1-56 bait; baseline: negative control).
For `MTVCNASQRQAHAQATAVSL`, the selectivity ratio was 2.7 ± 1.3 (BEAS-2B normal bronchial epithelial; phage binding output/input; peptide; baseline: control phage).
